Measurements of several laboratories.
Numbered parts are unrelated; each lists some results of a single study.
UniProt O95747, sequence (whole entry, looked up): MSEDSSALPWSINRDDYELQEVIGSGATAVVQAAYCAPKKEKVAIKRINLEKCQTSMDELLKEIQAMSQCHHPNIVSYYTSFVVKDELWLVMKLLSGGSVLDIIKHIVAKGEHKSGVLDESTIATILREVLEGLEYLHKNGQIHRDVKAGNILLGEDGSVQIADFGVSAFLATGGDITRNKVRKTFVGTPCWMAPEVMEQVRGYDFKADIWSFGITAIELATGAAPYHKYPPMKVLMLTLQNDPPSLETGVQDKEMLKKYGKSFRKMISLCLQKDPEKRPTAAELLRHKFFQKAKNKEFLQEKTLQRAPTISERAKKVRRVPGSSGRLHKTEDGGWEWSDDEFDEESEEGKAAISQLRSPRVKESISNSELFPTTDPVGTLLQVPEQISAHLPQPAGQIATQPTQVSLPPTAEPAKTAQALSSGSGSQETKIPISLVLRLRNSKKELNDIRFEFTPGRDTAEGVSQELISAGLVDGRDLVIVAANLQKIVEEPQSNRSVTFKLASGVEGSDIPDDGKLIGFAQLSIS
UniProt P35626, sequence (whole entry, looked up): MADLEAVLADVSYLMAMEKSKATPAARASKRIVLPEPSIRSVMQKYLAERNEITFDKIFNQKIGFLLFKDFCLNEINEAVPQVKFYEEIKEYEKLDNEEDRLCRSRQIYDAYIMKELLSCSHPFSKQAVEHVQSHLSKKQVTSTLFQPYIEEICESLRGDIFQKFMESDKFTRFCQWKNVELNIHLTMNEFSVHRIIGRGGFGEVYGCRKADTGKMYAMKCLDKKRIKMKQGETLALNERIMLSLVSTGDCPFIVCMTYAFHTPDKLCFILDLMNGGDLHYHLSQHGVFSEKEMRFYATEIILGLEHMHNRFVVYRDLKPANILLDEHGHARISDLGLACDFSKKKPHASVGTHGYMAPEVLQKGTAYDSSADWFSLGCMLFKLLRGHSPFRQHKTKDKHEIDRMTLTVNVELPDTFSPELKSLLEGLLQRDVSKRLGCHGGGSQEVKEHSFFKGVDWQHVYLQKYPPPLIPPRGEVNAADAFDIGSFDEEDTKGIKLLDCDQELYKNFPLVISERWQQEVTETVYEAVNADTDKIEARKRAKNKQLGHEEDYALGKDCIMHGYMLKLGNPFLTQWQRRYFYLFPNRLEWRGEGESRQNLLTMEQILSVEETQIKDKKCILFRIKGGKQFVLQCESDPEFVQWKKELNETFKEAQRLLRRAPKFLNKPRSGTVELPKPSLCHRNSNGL
UniProt P51955, sequence (whole entry, looked up): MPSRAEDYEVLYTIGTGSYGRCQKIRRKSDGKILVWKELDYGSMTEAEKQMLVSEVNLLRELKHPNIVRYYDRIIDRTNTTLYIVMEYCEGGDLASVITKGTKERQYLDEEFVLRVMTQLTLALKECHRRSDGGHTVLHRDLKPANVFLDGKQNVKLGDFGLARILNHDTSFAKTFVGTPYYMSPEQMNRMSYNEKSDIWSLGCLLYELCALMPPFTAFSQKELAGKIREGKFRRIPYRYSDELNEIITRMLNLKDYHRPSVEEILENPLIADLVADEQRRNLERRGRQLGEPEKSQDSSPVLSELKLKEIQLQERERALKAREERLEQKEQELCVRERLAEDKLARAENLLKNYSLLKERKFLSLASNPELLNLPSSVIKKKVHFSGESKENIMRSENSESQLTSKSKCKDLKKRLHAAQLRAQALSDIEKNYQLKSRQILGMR
UniProt P00519, sequence (whole entry, unmodified, looked up): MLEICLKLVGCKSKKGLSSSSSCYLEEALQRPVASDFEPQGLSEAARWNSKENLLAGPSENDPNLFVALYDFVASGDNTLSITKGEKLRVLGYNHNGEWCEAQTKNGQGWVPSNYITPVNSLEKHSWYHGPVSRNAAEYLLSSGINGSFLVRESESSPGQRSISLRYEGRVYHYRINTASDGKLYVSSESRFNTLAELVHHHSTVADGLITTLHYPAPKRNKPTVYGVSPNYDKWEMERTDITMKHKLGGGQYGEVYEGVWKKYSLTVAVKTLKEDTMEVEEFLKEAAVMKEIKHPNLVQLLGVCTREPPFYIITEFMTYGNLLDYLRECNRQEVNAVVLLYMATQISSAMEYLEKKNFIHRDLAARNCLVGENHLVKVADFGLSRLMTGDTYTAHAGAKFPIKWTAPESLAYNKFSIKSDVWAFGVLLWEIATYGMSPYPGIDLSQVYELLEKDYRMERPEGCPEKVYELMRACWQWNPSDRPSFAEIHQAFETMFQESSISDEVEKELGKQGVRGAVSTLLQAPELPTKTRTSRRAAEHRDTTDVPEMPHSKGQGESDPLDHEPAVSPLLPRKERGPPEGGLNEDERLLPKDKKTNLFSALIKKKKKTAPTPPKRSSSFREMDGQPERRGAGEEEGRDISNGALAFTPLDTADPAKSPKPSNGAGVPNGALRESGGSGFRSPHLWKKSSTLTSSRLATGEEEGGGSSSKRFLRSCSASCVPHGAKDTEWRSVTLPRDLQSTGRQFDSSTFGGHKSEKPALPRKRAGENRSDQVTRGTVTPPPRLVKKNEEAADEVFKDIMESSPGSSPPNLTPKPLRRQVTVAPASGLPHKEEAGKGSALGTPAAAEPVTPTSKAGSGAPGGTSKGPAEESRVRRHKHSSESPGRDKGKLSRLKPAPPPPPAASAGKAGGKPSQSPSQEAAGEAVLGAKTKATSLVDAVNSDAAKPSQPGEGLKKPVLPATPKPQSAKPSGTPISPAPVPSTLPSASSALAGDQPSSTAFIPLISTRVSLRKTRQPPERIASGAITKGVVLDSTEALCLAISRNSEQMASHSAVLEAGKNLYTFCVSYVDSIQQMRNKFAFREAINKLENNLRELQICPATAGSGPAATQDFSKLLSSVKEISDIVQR
UniProt P37173, sequence (whole entry, looked up): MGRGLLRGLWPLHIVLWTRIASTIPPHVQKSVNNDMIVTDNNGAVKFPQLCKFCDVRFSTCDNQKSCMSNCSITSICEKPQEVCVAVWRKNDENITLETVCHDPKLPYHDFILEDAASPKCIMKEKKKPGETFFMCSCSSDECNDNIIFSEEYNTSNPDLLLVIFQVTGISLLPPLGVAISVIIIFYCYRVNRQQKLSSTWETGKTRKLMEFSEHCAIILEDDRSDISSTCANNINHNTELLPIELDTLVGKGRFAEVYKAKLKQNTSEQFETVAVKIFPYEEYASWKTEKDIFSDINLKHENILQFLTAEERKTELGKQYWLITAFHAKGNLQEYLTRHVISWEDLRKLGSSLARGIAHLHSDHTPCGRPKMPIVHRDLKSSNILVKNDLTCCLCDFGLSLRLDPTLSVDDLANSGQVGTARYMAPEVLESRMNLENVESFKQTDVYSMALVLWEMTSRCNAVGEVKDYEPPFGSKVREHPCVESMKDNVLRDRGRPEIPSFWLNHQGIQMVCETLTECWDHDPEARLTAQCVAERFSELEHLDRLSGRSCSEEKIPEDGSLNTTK
UniProt Q13557, sequence (whole entry, looked up): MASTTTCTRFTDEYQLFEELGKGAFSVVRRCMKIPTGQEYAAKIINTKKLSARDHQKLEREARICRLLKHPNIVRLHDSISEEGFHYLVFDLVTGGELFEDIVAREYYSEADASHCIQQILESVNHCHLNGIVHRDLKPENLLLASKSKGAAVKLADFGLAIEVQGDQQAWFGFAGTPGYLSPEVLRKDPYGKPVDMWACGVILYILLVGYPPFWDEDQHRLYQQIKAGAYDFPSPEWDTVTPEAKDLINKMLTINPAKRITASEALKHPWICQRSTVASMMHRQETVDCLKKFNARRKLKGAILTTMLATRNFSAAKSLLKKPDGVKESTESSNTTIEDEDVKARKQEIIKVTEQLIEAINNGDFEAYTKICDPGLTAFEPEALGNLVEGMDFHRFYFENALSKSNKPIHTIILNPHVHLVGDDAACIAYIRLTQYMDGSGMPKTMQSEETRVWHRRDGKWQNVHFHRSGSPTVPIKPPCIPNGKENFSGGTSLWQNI
UniProt Q00535, sequence (whole entry, looked up): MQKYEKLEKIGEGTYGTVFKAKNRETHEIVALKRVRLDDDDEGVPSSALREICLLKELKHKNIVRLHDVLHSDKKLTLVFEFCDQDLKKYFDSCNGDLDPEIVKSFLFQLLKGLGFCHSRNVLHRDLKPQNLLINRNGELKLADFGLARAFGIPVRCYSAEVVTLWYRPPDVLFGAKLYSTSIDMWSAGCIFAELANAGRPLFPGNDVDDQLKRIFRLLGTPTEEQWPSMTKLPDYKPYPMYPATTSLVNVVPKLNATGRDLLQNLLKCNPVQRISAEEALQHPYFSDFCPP

Series 1
SMILES: COc1ccc(CNC(=O)Nc2ncc([N+](=O)[O-])s2)cc1
Read-out: enzyme activity
Mode: inhibitor
Tested at: 0.5 µM
Reference: control
Quantity: remaining activity
Serine/threonine-protein kinase Nek2 (NEK2, Homo sapiens, UniProt P51955): 99.1%
Protein kinase C alpha type (PRKCA, Homo sapiens, UniProt P17252): 61.9%
Calcium/calmodulin-dependent protein kinase kinase 2 (CAMKK2, Homo sapiens, UniProt Q96RR4): 92.7%
Mitogen-activated protein kinase 9 (MAPK9, Homo sapiens, UniProt P45984): 135%
TGF-beta receptor type-2 (TGFBR2, Homo sapiens, UniProt P37173): 117%
Cyclin-dependent kinase 5, with p25 (CDK5, Homo sapiens, UniProt Q00535): 97.7%
G protein-coupled receptor kinase 3 (GRK3, Homo sapiens, UniProt P35626): 112%
Death-associated protein kinase 2 (DAPK2, Homo sapiens, UniProt Q9UIK4): 93.3%
Inhibitor of nuclear factor kappa-B kinase subunit beta (IKBKB, Homo sapiens, UniProt O14920): 94.9%
Calcium/calmodulin-dependent protein kinase type II subunit delta (CAMK2D, Homo sapiens, UniProt Q13557): 98.3%
cGMP-dependent protein kinase 1, isoform beta (PRKG1, Homo sapiens, UniProt Q13976): 97.3%
Serine/threonine-protein kinase OSR1 (OXSR1, Homo sapiens, UniProt O95747): 95.9%
cAMP-dependent protein kinase catalytic subunit alpha (PRKACA, Homo sapiens, UniProt P17612): 96.9%
Inhibitor of nuclear factor kappa-B kinase subunit epsilon (IKBKE, Homo sapiens, UniProt Q14164): 99.8%
Protein kinase C beta type, isoform beta-I (PRKCB, Homo sapiens, UniProt P05771): 103%
Cyclin-dependent kinase 4, with cyclin D1 (CDK4, Homo sapiens, UniProt P11802): 97.3%
TGF-beta receptor type-1 (TGFBR1, Homo sapiens, UniProt P36897): 95.8%

Series 2
Read-out: AlphaScreen signal
Method: AlphaScreen counter screen
Medium: His6 peptide without bromodomain
Tested at: 50 µM
Setting: assay interference check
Quantity: inhibition
CC(Nc1nc(-c2cncnc2)cnc1N)c1ccccc1 (stereo not drawn): 17.6%
Cc1c(Cn2c(C)nc3c(C(=O)O)cc(N4CCOCC4)cc32)cccc1C(F)(F)F: 46.4%
CCN(CC)CCNc1nc(-c2cccc(OC)c2O)nc2ccccc12: 51.4%
COc1cc2c(N3CCN(C(=O)Nc4ccc(OC(C)C)cc4)CC3)ncnc2cc1OCCCN1CCCCC1: 35.6%
O=C1NC(=O)[C@@H](c2cn3c4c(cccc24)CCC3)[C@@H]1c1c[nH]c2ccccc12: 55.5%
CCS(=O)(=O)c1cccc(-c2cc(C(=O)NC3CCN(C)CC3)c(C)c3[nH]c4ncc(C)cc4c23)c1: 19.1%
COc1ccc(-c2c(-c3ccccc3)oc3ncnc(N)c23)cc1: 2.3%

Series 3
SMILES: CSc1cccnc1N1CCN(Cc2nc3ccccc3[nH]2)CC1
Read-out: cell-free assay
Method: competition with immobilised ligand
Tested at: 1 µM
Quantity: remaining binding
Proto-oncogene tyrosine-protein kinase receptor Ret (RET, Homo sapiens, UniProt P07949): 94%
Serine/threonine-protein kinase OSR1 (OXSR1, Homo sapiens, UniProt O95747): 78%
G protein-coupled receptor kinase 3 (GRK3, Homo sapiens, UniProt P35626): 31%
Tyrosine-protein kinase ABL1, phosphorylated (ABL1, Homo sapiens, UniProt P00519, F317L): 100%
Tyrosine-protein kinase ITK/TSK (ITK, Homo sapiens, UniProt Q08881): 97%
Phosphorylase b kinase gamma catalytic chain, skeletal muscle/heart isoform (PHKG1, Homo sapiens, UniProt Q16816): 96%

Series 4
Host: human
Medium: microsomes or S9
Tested at: 2 µM
Time: 0.5 h
Quantity: remaining compound
Nc1cc(S(=O)(=O)c2ccc(Nc3ccccc3)c(N)c2)ccc1Nc1ccccc1: 72.8%
CC1CCC(NS(=O)(=O)CC(=O)Nc2cc(-c3ccsc3)nn2C)CC1 (stereo not drawn): 26.2%
C[C@@H](NC(=O)c1ccc(F)cc1)[C@H](O)c1ccccc1: 87%
CC1=C(Br)C(=O)N(C(C)(C(N)=O)C(C)C)C1=O (stereo not drawn): 99.6%
N#Cc1cccc(-c2cncc3cc(-c4ccccc4C(=O)O)oc23)c1: 83.2%
CCCCN(C)Cc1cc(=O)oc2cc(C)c(O)cc12: 82.5%
O=C(c1c(OCC2CC2)cc(=O)n2c1CCOCC2)N1CCN(c2ncccn2)CC1: > 99%
COc1ccc(Cl)cc1NC(=O)N1Cc2c(sc3c2CCCC3)-n2cccc2C1c1cccc(F)c1 (stereo not drawn): 49.2%
CC(=O)N1N=C(c2ccc(C)cc2)OC1c1ccc(C(C)C)cc1 (stereo not drawn): 19.7%

For quick reference, copied from above (series 4):
N#Cc1cccc(-c2cncc3cc(-c4ccccc4C(=O)O)oc23)c1: 83.2%
O=C(c1c(OCC2CC2)cc(=O)n2c1CCOCC2)N1CCN(c2ncccn2)CC1: > 99%
COc1ccc(Cl)cc1NC(=O)N1Cc2c(sc3c2CCCC3)-n2cccc2C1c1cccc(F)c1 (stereo not drawn): 49.2%
Nc1cc(S(=O)(=O)c2ccc(Nc3ccccc3)c(N)c2)ccc1Nc1ccccc1: 72.8%
